# Experimental data from different studies.
# Values joined by “and” are separate records of one study, mostly repeats; a detail may differ. ± marks the error that the study gave.
SMILES,test,system,setting,scale,endpoint,result
Cc1c(-c2ccc(N3CCc4cccc(C(=O)Nc5nc6ccccc6s5)c4C3)nc2C(=O)O)cnn1CC12CC3(C)CC(C)(C1)CC(OCCNCC[C@H](O)CO)(C3)C2,,anaesthetized male beagle dog,"iv infusion, 0.1 mg/kg/min, 60 min",,plasma concentration,< 4 ng/mL
COc1cc(/C=C/C(=O)O)ccc1O,,human CSF,"concentration not given, mean",,CSF concentration,not detected
O=C(/C=C/CCc1ccc(O)cc1)/C=C/c1ccc(O)cc1,,nude mouse MCF7 xenograft,"40 mg/kg, day 8",,body weight,19.8 ± 0.92 g
Cc1c(C(=O)O)ccc2c3n(nc12)[C@@H]1[C@H](C3)N(CC2CC2)[C@@]2(C(=O)Nc3cc(Cl)ccc32)[C@H]1c1cccc(Cl)c1F,,"female BALB/c nude mice, plasma","oral, 1 mg/kg twice daily, 4 h, SJSA-1 tumour-bearing",,plasma concentration,930 nM and 1280 nM and 815 nM and 751 nM
CC(=O)N(C)[C@H]1CCN(C(=O)c2cnc3c(c2)C[C@](C)(c2ccc(F)cc2)N3)C1,item: Headache,human,"oral, 15 mg once daily",,adverse event duration,1 days
C[C@H]1CNCCCN1S(=O)(=O)c1cccc2cncc(F)c12,item: Diarrhea,healthy adult men,"topical ocular, 1 drop per eye twice daily, 8 days",,adverse events,0%
C[C@@H](Oc1ccc(S(C)(=O)=O)cc1C(=O)N1C[C@@H]2C[C@]2(c2cc(C(F)(F)F)on2)C1)C(F)(F)F,,human,"oral, 25 mg",,incidence of Rhinitis,16.7%
N[C@@H](Cc1ccc(O)c(O)c1)C(=O)O,,"MPTP-lesioned marmoset, dyskinetic",20 mg/kg,,time to peak dyskinesia,30 min
C=CC(=O)NC1CCN(c2ncc3ncnc(Nc4ccc(Oc5ccc6c(c5)ncn6C)c(C)c4)c3n2)CC1,,"healthy male volunteers, plasma","oral, 60 mg, 14C-labelled solution, geometric mean",,AUC(0-tz),14.1 µM·h
C[C@@H](Nc1cc(F)cc(F)c1)c1cc(C(=O)N(C)C)cc2c(=O)cc(N3CCOCC3)oc12,,human,"oral, 120 mg twice daily, dose-expansion cohort, geometric LSM, added: abiraterone 1000 mg",,AUC(tau),4410 ng·h/mL
CC(C)(O)c1coc(S(=O)(=O)NC(=O)Nc2c3c(cc4c2CCC4)CCC3)c1,,"Sprague-Dawley rat, male, ankle joint tissue","oral, 2 mg/kg, 2 h",,tissue concentration,9710 ng/g
CCC(C)n1ncn(-c2ccc(N3CCN(c4ccc(OCC5COC(Cn6cncn6)(c6ccc(Cl)cc6Cl)O5)cc4)CC3)cc2)c1=O (centres unmarked),,healthy human volunteers,"oral, 200 mg, compound alone cohort",,incidence of nervous system disorders,0%
O=C(CCCN1CC=C(n2c(=O)[nH]c3ccccc32)CC1)c1ccc(F)cc1,,"male Hartley guinea pigs, anaesthetized","intravenous, 0.1 mg/kg over 10 min, after infusion",,heart rate,224 ± 0.9 beats/min
CC(C)NCCCC[C@@H]1NC(=O)[C@H](Cc2ccc(O)cc2)NC(=O)[C@H](Cc2ccccc2)NC(=O)CC[C@H](C(=O)N[C@@H](CCCCNC(C)C)C(=O)N[C@@H](CCCCNC(=O)[C@H](CCC(=O)O)NC(=O)[C@H](CCC(=O)O)NC(=O)[C@H](CCC(=O)O)NC(=O)CN2CCN(CC(=O)O)CCN(CC(=O)O)CCN(CC(=O)O)CC2)C(N)=O)NC(=O)CNC(=O)[C@H](Cc2ccc3ccccc3c2)NC(=O)[C@@H](CCCNC(=N)N)NC1=O [gallium-68 labelled],,"mouse with Daudi xenograft, heart","intravenous, 2 h",,tissue uptake,0.05 %ID/g
Cc1noc(C)c1Cn1cc(N2C(=O)CN(Cc3cccc(O)c3)C2=O)cn1,,pooled human liver microsomes,"10 µM, 30 min, pH 7.4",,remaining parent,116 % peak area
O=C(O)CNC(=O)c1ccccc1,,human CSF,"concentration not given, mean",,CSF concentration,not detected
C[C@@H]1[C@H](O)[C@@H](C)/C=C/C=C/C=C/C=C/C=C/C=C/C=C/[C@H](O[C@@H]2O[C@H](C)[C@@H](O)[C@H](N)[C@@H]2O)C[C@@H]2O[C@](O)(C[C@@H](O)C[C@@H](O)[C@H](O)CC[C@@H](O)C[C@@H](O)CC(=O)O[C@H]1C)C[C@H](O)[C@H]2C(=O)O,calcein leakage,liposomes,"50 min, room temperature",,EC50,7.1 µg/mL
C=CS(=O)(=O)Nc1ccc(OC)c(-c2c[nH]c3ncc(-c4cncc(C(=O)N(C)C)c4)cc23)c1,HPLC,,"50 µM, 37 °C, no lysine, followed to 24 h",,hydrolytic half-life,> 24 h
COc1c(O)cccc1OS(=O)(=O)O,,human CSF,"concentration not given, mean",,CSF concentration,not detected
COc1cccc(OC)c1-c1cc(C(=O)NC2(C(=O)O)C3CC4CC(C3)CC2C4)nn1-c1ccc(C(=O)N(C)CCCN(C)CCCN(C)C(=O)CN2CCN(CC(=O)[O-])CCN(CC(=O)[O-])CCN(CC(=O)[O-])CC2)cc1C(C)C.[177Lu+3] (centres unmarked),,mouse HT-29 xenograft,"24 h, biodistribution",reference: tumour over stomach,tumour-to-stomach ratio,201
O=C(Nc1nc2cccc(-c3ccc(CN4CCS(=O)(=O)CC4)cc3)n2n1)C1CC1,item: asthenia,human rheumatoid arthritis patients,"oral, 300 mg once daily, 4 weeks, regardless of relatedness",,treatment-emergent adverse events,5%
CN(C(=O)n1cnc(-c2ccc[n+]([O-])c2)c1)[C@H]1CC[C@H](O)CC1,,"rat, cortex","oral, 10 mg/kg single dose, 24 h",,tissue concentration,8.7 ± 0.3 ng/g
Cc1ccc(Sc2ccccc2N2CCNCC2)c(C)c1,item: Dizziness,healthy adult men,"oral, 10 mg daily, 12 days",,participants with TEAE,0%
CC(=O)Oc1ccccc1C(=O)O,,"male Hartley guinea pigs, anaesthetized","intravenous, 3 mg/kg over 10 min, after infusion",,heart rate,218 ± 0.4 beats/min
CCc1cc(C(=O)NC)c2nccc(N3CCc4c(cc(Cn5ccnc5)cc4-c4cn(C)nc4C(F)(F)F)C3=O)c2c1,,Sprague Dawley rat,"oral, 100 mg/kg once daily, day 7, 7-day toxicology study",,body weight,265 ± 3.9 g
Cc1ccnc([18F])c1-c1cccc(N2C[C@H](N3CCN(C(=O)c4nccs4)CC3)CC2=O)c1,,"human, brain pons",intravenous,,ktrans,0.0073 min⁻¹
Cc1ccc(C(=O)N(CCCN)C(c2nc3snc(C)c3c(=O)n2Cc2ccccc2)C(C)C)cc1 (centres unmarked),,human patients,"intravenous, 16 mg/day",,grade ≥3 hyperbilirubinemia patients,14%
COc1cc(N)c(Cl)cc1C(=O)NC1CCN(CCCOc2ccc(F)cc2)CC1OC (centres unmarked),,"male Hartley guinea pigs, anaesthetized","intravenous, 0.1 mg/kg group, baseline before infusion",,heart rate,247 ± 0.5 beats/min
CCN1/C(=C/C(C)=O)Sc2ccc(F)cc21,,cynomolgus monkey,"oral, 10 mg/kg, 4 h post-dose",reference: pre-dose,PR interval change,106 ± 6.1%
CN1C(=O)[C@@H](NC(=O)c2nnc(Cc3ccccc3)[nH]2)COc2cccnc21,,"healthy human, fasted, plasma","oral, 800 mg single dose, median",,Tmax,4 h
CCn1cc(C(=O)N2CCOCC2)c(=O)c2cc(NC3Cc4ccccc4C3)cnc21,,"human, fed","oral suspension, 1200 mg single dose, arithmetic mean",,AUC(0-inf),47400 ng·h/mL
CN(C(=O)n1cnc(-c2cccnc2)c1)[C@H]1CC[C@H](O)CC1,,"Wistar rat, pons","oral, 10 mg/kg/day of BIA 10-2474, 72 h, repeated 5 days",,concentration,13.5 ± 1.3 ng/g
CCc1c(-c2ccccc2)c(-c2ccccc2)nn1-c1ccccc1-c1cccc(OCC(=O)O)c1,,Sprague-Dawley rat,"intravenous, dose not given",,AUMC(0-inf) observed,1730 h²·ng/mL and 2350 h²·ng/mL and 3460 h²·ng/mL
Cc1cc(C)c(CNC(=O)c2cc(Cl)c3c(c2C)O[C@@](C)([C@H]2CC[C@H](N(C)C)CC2)O3)c(=O)[nH]1,,relapsed/refractory NHL patients,"oral, 200 mg once daily, onset after cycle 1 day 1",,adverse event Dysgeusia,50%
CNc1ccc(-c2nc3ccc(O)cc3s2)cc1 [carbon-11 labelled],ex vivo biodistribution,"APP/PS1 Alzheimer mice, gut","intravenous, 30 min",,uptake,6.44 ± 1.46 SUV
COc1cc(C2=CCCc3c2ccc(OC)c3OCc2ccc([N+](=O)[O-])s2)cc(OC)c1OC,"non-enzymatic, no POR",phosphate buffer,"24 h, pH 7.4",,parent drug release,0%
COc1cc2nccc(Oc3ccc(NC(=O)c4cc5c(n(-c6ccccc6)c4=O)CCCC5=O)nc3)c2cc1OC,,patients with relapsed/refractory AML,"oral, 6 mg once daily",,TEAEs leading to interruption,33.3%
O=C(O)CNC(=O)c1cccc(O)c1,,human CSF,"concentration not given, mean",,CSF concentration,not detected
CCOc1c([C@H](C)n2nc(C)c3c(N)ncnc32)cc(Cl)c(F)c1[C@@H]1CNC(=O)C1,item: QTcF change ≤30 ms,previously treated B-cell malignancy,"oral, 20 mg once daily, overall population",reference: baseline,ECG observations,95.8%
COC(=O)N[C@H](C(=O)N[C@@H](Cc1ccccc1)[C@@H](O)CN(Cc1ccc(-c2ccccn2)cc1)NC(=O)[C@@H](NC(=O)OC)C(C)(C)C)C(C)(C)C,,"50 mM phosphate buffer, 100 µg/mL HPMCAS","pH 6.5, 37 °C, average of three methods",,amorphous solubility,39.2 µg/mL
N#Cc1ccc2c(c1)[C@H]1CCCN(C(=O)c3ccc4[nH]cnc4c3)[C@H]1C2,,human,"80 mg, day 15",,mean ACTH level,7.8 pmol/L
O=C(O)CCC(=O)O.[2H]C([2H])([2H])Oc1cc(C)c2[nH]ccc2c1CN1CC[C@@H](C2CC2)C[C@H]1c1ccc(C(=O)O)cc1,multiple ascending dose,healthy Chinese subjects,50 mg twice daily,,subjects with neutropenia,0%
CO[C@@H]1[C@H](O)[C@@H](CO)O[C@H]1n1c([N+](=O)[O-])nc2c(=O)[nH]c(N)nc21,"depurination, RP-HPLC",citrate-phosphate buffer 0.5 mM,"2580 min, pH 7, 37 °C",,nucleoside remaining fraction,0.593
Cl.[2H]C([2H])([2H])CC(=O)c1cnc(NC(=O)C2CC2)cc1Nc1cccc(-c2ncn(C([2H])([2H])[2H])n2)c1OC,geometric mean,human,"oral, 10 mg once daily, day 7, fasted, liquid, multiple dose",,AUC(0-inf),1110 ng·h/mL
COc1ccc([C@@H](O)c2cc(-c3ncnc4cc(N5CCOCC5)ccc34)c(F)cc2Cl)nn1,,locally advanced rectal cancer patients,"50 mg, added: capecitabine and radiotherapy",,drug-related lymphocyte count decrease,0%
CNC(=O)c1cc(Oc2ccc(NC(=O)Nc3ccc(Cl)c(C(F)(F)F)c3)cc2)ccn1,,"NOD-SCID mouse, serum","ip, 30 mg/kg",,TBIL,0.73 ± 0.32 mg/dL
CN[C@H](CC(C)C)C(=O)N[C@H]1C(=O)N[C@@H](CC(N)=O)C(=O)N[C@H]2C(=O)N[C@H]3C(=O)N[C@H](C(=O)N[C@H](C(=O)O)c4cc(O)cc(O)c4-c4cc3ccc4O)[C@H](O)c3ccc(c(Cl)c3)Oc3cc2cc(c3O[C@@H]2O[C@H](CO)[C@@H](O)[C@H](O)[C@H]2O[C@H]2C[C@](C)(N)[C@H](O)[C@H](C)O2)Oc2ccc(cc2Cl)[C@H]1O,,poloxamer 407 hydrogel,"pH 7.4, 37 °C, co-formulated with antibiotics",,time to complete release,8 h
OC[C@H]1O[C@@H](c2ccc(Cl)c(Cc3ccc(O[C@H]4CCOC4)cc3)c2)[C@H](O)[C@@H](O)[C@@H]1O,,"Japanese type 1 diabetes patients, blood","10 mg, day 28",reference: baseline,change in ALT,0 U/L
CC(C(=O)NCC(=O)NCC(CNC(=O)CNC(=O)C(C)N1CCN(CC(=O)[O-])CCN(CC(=O)[O-])CCN(CC(=O)[O-])CC1)(CNC(=O)CNC(=O)C(C)N1CCN(CC(=O)[O-])CCN(CC(=O)[O-])CCN(CC(=O)[O-])CC1)CNC(=O)CNC(=O)C(C)N1CCN(CC(=O)[O-])CCN(CC(=O)[O-])CCN(CC(=O)[O-])CC1)N1CCN(CC(=O)[O-])CCN(CC(=O)[O-])CCN(CC(=O)[O-])CC1.[Gd+3].[Gd+3].[Gd+3].[Gd+3] (centres unmarked),ICP-MS,cynomolgus monkey,"dose not given, 3 d, mass balance group",reference: dose,cumulative urinary excretion,99.9%
O=C1NCCc2nc(OCc3cccc(F)c3)ccc21,modified Irwin test,"Sprague-Dawley rat, male","oral, 100 mg/kg, 30 min",higher = stronger effect,rigid stance score,0
C=CCn1c(=O)c2cnc(Nc3ccc(N4CCN(C)CC4)cc3)nc2n1-c1cccc(C(C)(C)O)n1,,human,"oral, 250 mg once daily, cycle 1 day 17, added: durvalumab 1500 mg IV",median,Tmax,2 h
Cc1cc(-c2nccc3c2ccn3CC(=O)Nc2ccc(-c3cnccn3)cn2)ccn1,,human,"MAD part, 5 mg once daily",,subjects with TEAE leading to discontinuation,25%
O=C1Cc2cc(CCN3CCN(c4nsc5ccccc45)CC3)c(Cl)cc2N1,,"male Hartley guinea pigs, anaesthetized","intravenous, 0.1 mg/kg group, baseline before infusion",,heart rate,214 ± 0.5 beats/min
C[C@@H](c1nc(-c2ccc(C#N)cc2)cs1)[C@](O)(Cn1cncn1)c1cc(F)ccc1F,,"healthy human subjects, both sexes","oral, 200 mg, 13 days, study",,treatment-emergent adverse events,61.1%
COc1cc(Nc2ncc3c(n2)-c2ccc(Cl)cc2C(c2c(F)cccc2OC)=NC3)ccc1C(=O)O,"item: oral mucositis, grade 3","cancer patients, phase 1/2","dose not given, added: pembrolizumab",,patients with adverse event,4%
C=CCN1CC(=O)N2[C@@H](Cc3ccc(O)cc3F)C(=O)N(Cc3cccc(N4CC(N5CCN(CC)CC5)C4)n3)C[C@@H]2N1C(=O)NCc1ccccc1,item: Malaise,advanced solid tumour patients,"oral, 120 mg twice daily, expansion part, grade ≥3",,treatment-related adverse events,0%
